Measurements collected from several papers.
Each numbered part is a random draw from the data of one study; scales do not carry over between parts.

Sample 1 — technique: Sort-seq; refers to: YFP reporter; sample: E. coli; setting: PhoQ-PhoP variant library; added: 10 µM Mg2+; baseline: high Mg2+ state; direction: higher = stronger signaling
Molecule: PhoQ, residues 284 288 289 292 302 303 SIHLQL
| target | fold induction |
| --- | --- |
| PhoP, residues 12 14 15 18 19 TQCLL (Escherichia coli, UniProt P23836) | 2.49 |
| PhoP, residues 12 14 15 18 19 ICWRQ (Escherichia coli, UniProt P23836) | 1.85 |
| PhoP, residues 12 14 15 18 19 VHTVL (Escherichia coli, UniProt P23836) | 13.8 |

Sample 2 — technique: RNA Bind-n-Seq; form: RNA; sample: in vitro; concentration: 365 nM; baseline: no-protein control; direction: higher = stronger binding
Target: RNA binding protein fox-1 homolog 2, RRM domain, GST-SBP tag (RBFOX2, Homo sapiens, UniProt O43251-10, residues 100-194)
Setting: natural RNA segment, single round, ends assumed
Construct (chain): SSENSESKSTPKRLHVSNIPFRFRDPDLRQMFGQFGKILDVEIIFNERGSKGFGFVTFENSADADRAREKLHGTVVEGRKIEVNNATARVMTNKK
| Strand | RBNS enrichment (R) |
| --- | --- |
| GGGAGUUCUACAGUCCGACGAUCUGAGCCCCUAGACAGUAUUGCCAUCUCUGGCCAAAUAUGCACUUUCCCUAGAAAGCCAUAUUCCAGCAAUGAACCUUGUGCUAUAGUGACUCCCACCUGUACAUACAUUGUGGAAUUCUCGGGUGCCAA | 0.359 |
| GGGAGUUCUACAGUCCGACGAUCGUUUACUUGAAGAAAAAAGCACCCGUGGAGAAUAAAGAGACCUCAAUAAACAAGAAUAAUCAUGUGACGUGGAAUCUGUUUUCUCACCUUCUGUUCUCGAUUUCCCAUCUUGGAAUUCUCGGGUGCCAA | 0.333 |
| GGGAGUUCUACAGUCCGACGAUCUAUCUUCUAUGUCUCUGUCAAGGACAGAAGUUGUCAGUUUAAUACACGAGCUCUUGUGUUGAAAGUGUCCAGGCCGUAGAACUUCAUUGCUACUGACUUUACACAGUUUAUGGAAUUCUCGGGUGCCAA | 0.673 |
| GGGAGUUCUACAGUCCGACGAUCUUCAUUAAAUGAUUUUUUCUGGUGGUUGUCAAGAAACAAAAGACCAAAAGAGCCUUUUUGUCUUUCUUUUUUAUUUUUUAAGUAUUGGAAUAAGUCUAAAGAAAAGAAAGUGGAAUUCUCGGGUGCCAA | 0.466 |
| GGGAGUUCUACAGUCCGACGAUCCCCACUCAGCAUACACCCUCAAAAGACUCCCUCAGGAAACCACUAGUUCCUGUCACCUGCCCUCUGGUGUGUCCCUUGGCAAAUCUCUAUAGGAGGCCAAGUGUUAGCUAUGGAAUUCUCGGGUGCCAA | 0.604 |
| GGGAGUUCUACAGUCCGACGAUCGAAGUAUUAAGGGAGGAAGUGCUGGUAGCUGCCCUGUGGGGAGACUCCCUAGGAAAGUAACGGGCACCAGGCUUCGUGACUUUCAUUCUCAUUUAUAAGUUAGACAUUCAUGGAAUUCUCGGGUGCCAA | 0.508 |
| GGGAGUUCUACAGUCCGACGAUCAGGAAAGGGGGAUGUUUUCCUGGUGUUUGGAUGGUCAGCUGGGAGUGUCCAUCAUCAGGGGAAGAUCAAACACAGGUGCACUCAGCUGCCCAGGGCCUCUGGGACACUUGUGGAAUUCUCGGGUGCCAA | 0.507 |
| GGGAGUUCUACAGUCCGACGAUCUGCUCCUUACCAAAAAUCAGUCUUCUAGCAAAUAAAAAUAACUUAGAGCAUUAUUUAUUUAAAGAAUUUAUGUUUUCUAUAAAACCUUAUAACCAAGAACCUUCAGGAUGUGGAAUUCUCGGGUGCCAA | 0.766 |

Sample 3 — technique: RNA Bind-n-Seq; form: RNA; sample: in vitro; concentration: not given; baseline: input RNA pool; direction: higher = stronger binding
Target: RING finger protein unkempt homolog, zinc fingers 1-6, GST-SBP tag (UNK, Homo sapiens, UniProt Q9C0B0, residues 30-357)
Chain of UniProt Q9C0B0 (30-357, looked up): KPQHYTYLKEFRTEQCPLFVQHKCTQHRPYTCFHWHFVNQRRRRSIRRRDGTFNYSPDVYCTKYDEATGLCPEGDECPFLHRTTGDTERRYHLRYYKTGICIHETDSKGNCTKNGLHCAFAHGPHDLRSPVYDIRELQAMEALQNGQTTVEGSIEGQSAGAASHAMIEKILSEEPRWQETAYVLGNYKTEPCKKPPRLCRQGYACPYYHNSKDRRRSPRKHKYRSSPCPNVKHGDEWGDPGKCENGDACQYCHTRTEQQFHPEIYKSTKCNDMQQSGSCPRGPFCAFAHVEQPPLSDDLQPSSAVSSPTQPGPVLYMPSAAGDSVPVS
Setting: RNA with constant flanks, human-mouse chimeric sites, ends assumed
| Strand | bound/input enrichment [ratio] |
| --- | --- |
| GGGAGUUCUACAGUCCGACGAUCAUAGAUGAAAUUGAUGUGGACCAGGAAGGAAUUGCAGAAAUGAUCCUGGAUGAAAAUGCUAUAGCUCAGGUCCCACGCCCUGGCACAUCUUUGAAGCUCCCUGGCACUAACCAAACAGGACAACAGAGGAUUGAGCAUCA | 0.297 |
| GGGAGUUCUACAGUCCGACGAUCCUUCGGAAAAAAAAAUUACCUUUUCUGACAGUGCUUUCCCUCCCAUAGAUCCACGUUCAAGCUCAAAGGCCAAAACUUUUGCACGGAGCUCAAACAUCUGAUGAAGAAAGAUUUCUGAGACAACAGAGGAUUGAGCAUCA | 0.627 |
| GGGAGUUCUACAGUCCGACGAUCUCUUUAAAAAAAAAAUUACCUUUUCUGACAGUGCUUUCCCUCCCAUAGAUCCACGUUCAAGCUCAAAGAGCAAAGGCUUUGCACGGAUCUGAUGAUGAAAAGAAAGAAAGAUUUCUGAGACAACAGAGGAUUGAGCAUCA | 0.276 |
| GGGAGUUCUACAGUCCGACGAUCAAUUUCCUGUCAUACUUUUUAGACAUUCACAUCAGACGCCUUACUACCCUGGCCACAUUCUAGGUUUGUGUUAUUUCUCAGCUAUGGGGGUAUGAUUAUGAGAACACUGCUUAACUAAUGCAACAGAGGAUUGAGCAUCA | 1.25 |
| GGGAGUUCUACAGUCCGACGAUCCUUAAUGUUAAUAUUUUUGAAUAAAUGUAAAACCAUGGUCUGCUUUUGGUACAACACGCAUUAAUAAAAGGUUAAGUUUUGUUUUCCACUGAAGUACUAUUUAACAUCUCAGAAAAAAACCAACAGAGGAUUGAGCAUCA | 0.209 |
| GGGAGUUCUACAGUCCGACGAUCGUAAUGUUUAUUCAUUUAACUUAUUUUUAUAGCUAGAUAAAUAUUGUUAGUCUUAGACAAUAGCUCACAUCUUUACAGAAGCAUGCCCUCCCUGUCCAUUUGUCUUAUAACAUGACCCAGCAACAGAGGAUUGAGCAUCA | 6.18 |
| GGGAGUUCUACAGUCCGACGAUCCUAAUCCCCUUUACUGCUCCACCACUGCUCAUGGUAAUAACAAAGUCUUAUAUCCCCGUCCUAGCUUUCACUCAGAUGGCUUAUGGAGCCGGUUUCCUAGCUUUCUUGGGAGGGAUCAGACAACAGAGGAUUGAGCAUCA | 0.469 |
| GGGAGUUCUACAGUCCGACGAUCGCUCCUCCCCGCUCUGCCCCUGCCUGCCACUGGGCUGGGACCAGAAUCCAGCUUUCUUUUAAAACUCUCAGUGUAACUGUAUCCCGUGACAUUUCAUUUUUUUUAAAUAGUGUAUUUUUUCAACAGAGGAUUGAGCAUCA | 4.61 |

Sample 4 — technique: protein-binding microarray; form: double-stranded DNA, one strand shown; sample: in vitro; concentration: 0.8 µM; setting: whole 60-bp probe, no competitor; direction: higher = stronger binding
Target: Centromere-binding protein 1, full length, N-terminal tag (CBF1, Saccharomyces cerevisiae, UniProt P17106, residues 1-351)
Chain of UniProt P17106 (whole entry, looked up): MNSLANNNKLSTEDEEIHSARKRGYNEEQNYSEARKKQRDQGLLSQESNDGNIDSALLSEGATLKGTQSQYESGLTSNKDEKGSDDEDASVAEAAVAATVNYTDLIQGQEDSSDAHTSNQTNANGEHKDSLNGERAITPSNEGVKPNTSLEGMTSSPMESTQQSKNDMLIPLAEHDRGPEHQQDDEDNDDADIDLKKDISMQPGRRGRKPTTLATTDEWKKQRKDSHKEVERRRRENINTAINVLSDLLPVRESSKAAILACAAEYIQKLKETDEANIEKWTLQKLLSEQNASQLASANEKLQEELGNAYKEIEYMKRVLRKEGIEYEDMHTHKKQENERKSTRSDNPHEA
| Strand | fluorescence intensity [a.u.] |
| --- | --- |
| GAAGAATATATACGCCTGATGACGTACGTTTTATAGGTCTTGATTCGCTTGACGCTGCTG | 507 |
| GAATTCTTTTTTTGCCACGGGGCGGGTACTAGATAGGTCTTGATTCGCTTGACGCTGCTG | 713 |
| GAAAATTGAGATGGTCACATAACGTGAAAACTCTAGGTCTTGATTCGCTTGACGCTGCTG | 601 |
| GAATTGAAATGTCATCACGTGGACATTATATCATAGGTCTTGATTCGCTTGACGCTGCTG | 15100 |
| CTAATTTGTCACAGTCACGTGATTACATTTAAGTTCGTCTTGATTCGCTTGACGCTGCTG | 39800 |
| CTACGTGTTTCGGGACACGTCGCTGAAAAGGATTTCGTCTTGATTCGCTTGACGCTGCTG | 525 |
| CTAGTCTATCTTATAGGCGTGATAGATGTCATTTTCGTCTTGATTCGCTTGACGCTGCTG | 632 |
| GAAGGTTTTGCGCTAATCGTGCGCCTGATTTTTTAGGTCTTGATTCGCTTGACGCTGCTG | 562 |
| CTACAAAAGAAAAACACCGTGCTGTGTGACCATTTCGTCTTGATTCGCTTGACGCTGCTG | 622 |
| CTAGATATACCACACCACGTGAGCTTATAGAAGTTCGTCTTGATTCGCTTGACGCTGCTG | 6990 |
| GAATCATATATTGATCACAATGCACGGAGACGCTAGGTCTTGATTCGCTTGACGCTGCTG | 651 |
| CTACAGTTCGATTCTGATGTAGGCAATGGAAGATTCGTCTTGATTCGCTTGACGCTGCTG | 569 |
| GAATGACTGTGATGATTGGTGATGAACCATATATAGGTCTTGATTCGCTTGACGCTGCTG | 556 |
| GAATAGCTTGAGAAGGAGGTGATGCGTTACTAATAGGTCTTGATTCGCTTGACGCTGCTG | 500 |
| TGTACGAAGCTATACGTGACCAATATAGTAGTTAGGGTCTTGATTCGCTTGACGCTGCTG | 920 |
| CTATCGCCCCAGTTACACGTGGGGACAATGGCGTTCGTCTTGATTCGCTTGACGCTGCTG | 2210 |

Some of these lines once more (sample 4):
| Strand | fluorescence intensity [a.u.] |
| --- | --- |
| GAAAATTGAGATGGTCACATAACGTGAAAACTCTAGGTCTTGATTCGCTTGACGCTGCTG | 601 |
| CTACAGTTCGATTCTGATGTAGGCAATGGAAGATTCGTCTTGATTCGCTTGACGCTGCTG | 569 |
| CTATCGCCCCAGTTACACGTGGGGACAATGGCGTTCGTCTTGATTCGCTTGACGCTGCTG | 2210 |
